Experimental data collected from several papers.
A part holds a random share of what one study measured.

Series 1 — method: aptamer microarray, sandwich; molecule type: DNA with 2'F-ANA; matrix: in vitro; tested at: 200 nM; added: Cy3 exosite-II aptamer, 400 nM; reading: higher = stronger binding
Target: Prothrombin, mature alpha-thrombin (F2, Homo sapiens, UniProt P00734)
Notes: whole 15-mer aptamer, many near background
`GGTTGGTGTGGTTGG (2'F-ANA at 1 2 3 4 5 7 9 11 13 14 15)` — result for “mean fluorescence intensity”: 95.8 a.u.
For `GGTTGGTGTGGTTGG (2'F-ANA at 2 4 6 7 9 10 13 15)`, “mean fluorescence intensity” read 70.3 a.u.
`GGTTGGTGTGGTTGG (2'F-ANA at 1 3 5 6 15)`: “mean fluorescence intensity” 61 a.u.
For `GGTTGGTGTGGTTGG (2'F-ANA at 1 4 7 8 11 12 13 15)`, “mean fluorescence intensity” read 198 a.u.

Series 2 — method: protein binding microarray; molecule type: double-stranded DNA, one strand shown; matrix: in vitro; tested at: not given; baseline: not given; reading: higher = stronger binding
Target: Histone acetyltransferase KAT6A, both winged helices, GST fusion (KAT6A, Homo sapiens, UniProt Q92794, residues 1-181)
Notes: 8-mer, flanks averaged, mean of 2 arrays, mostly near background
Residues (chain): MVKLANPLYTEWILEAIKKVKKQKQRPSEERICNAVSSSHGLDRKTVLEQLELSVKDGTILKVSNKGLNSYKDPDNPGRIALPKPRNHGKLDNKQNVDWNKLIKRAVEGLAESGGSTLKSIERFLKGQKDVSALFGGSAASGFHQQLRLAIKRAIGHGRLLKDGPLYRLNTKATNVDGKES
The E-score of `ACTTTCAG` is reported as -0.0978.
With `AGACGCAC` the E-score was 0.122.
With `ATCGAGAT` the E-score was -0.116.
The E-score of `GACCGAAC` is reported as 0.0183.
For `AAAAACAC`, the E-score was 0.00783.
With `CAAGTTTC` the E-score was 0.00756.

Series 3 — method: RNA Bind-n-Seq; molecule type: RNA; matrix: in vitro; tested at: 20 nM; notes: 6-mer, flanks averaged, single round; added: 150 mM LiCl; baseline: input library; reading: higher = stronger binding
Target: TAR DNA-binding protein 43, full length, His tag (TARDBP, Homo sapiens, UniProt Q13148, residues 1-414)
`UGCCAG`: “6-mer enrichment (R)” 0.971.
For `CACGGC`, “6-mer enrichment (R)” read 0.876.
`CACAGA` — result for “6-mer enrichment (R)”: 0.821.
`CCGACC`: “6-mer enrichment (R)” 0.849.
Under “6-mer enrichment (R)”, `CCUUUA` is recorded as 1.01.

Other studies, line by line
The fold induction of `PhoQ, residues 284 288 289 292 302 303 SLSLLA` is reported as 6.82 (PhoP, residues 12 14 15 18 19 AWHSL (Escherichia coli, UniProt P23836); Sort-seq, refers to: YFP reporter; E. coli; PhoQ-PhoP variant library, added: 10 µM Mg2+; baseline: high Mg2+ state, higher = stronger signaling).

A few entries again (series 2):
For `AAAAACAC`, the E-score was 0.00783.
With `ATCGAGAT` the E-score was -0.116.
